Results collected from several papers.
Lines come from different studies, so protocols differ. Values joined by “and” are separate records of one study, mostly repeats; a detail may differ. Numbers after ± are the reported error.
TOP2A: DNA topoisomerase 2-alpha (TOP2A, Homo sapiens, UniProt P11388)
Sequence of UniProt P11388 (whole entry, looked up): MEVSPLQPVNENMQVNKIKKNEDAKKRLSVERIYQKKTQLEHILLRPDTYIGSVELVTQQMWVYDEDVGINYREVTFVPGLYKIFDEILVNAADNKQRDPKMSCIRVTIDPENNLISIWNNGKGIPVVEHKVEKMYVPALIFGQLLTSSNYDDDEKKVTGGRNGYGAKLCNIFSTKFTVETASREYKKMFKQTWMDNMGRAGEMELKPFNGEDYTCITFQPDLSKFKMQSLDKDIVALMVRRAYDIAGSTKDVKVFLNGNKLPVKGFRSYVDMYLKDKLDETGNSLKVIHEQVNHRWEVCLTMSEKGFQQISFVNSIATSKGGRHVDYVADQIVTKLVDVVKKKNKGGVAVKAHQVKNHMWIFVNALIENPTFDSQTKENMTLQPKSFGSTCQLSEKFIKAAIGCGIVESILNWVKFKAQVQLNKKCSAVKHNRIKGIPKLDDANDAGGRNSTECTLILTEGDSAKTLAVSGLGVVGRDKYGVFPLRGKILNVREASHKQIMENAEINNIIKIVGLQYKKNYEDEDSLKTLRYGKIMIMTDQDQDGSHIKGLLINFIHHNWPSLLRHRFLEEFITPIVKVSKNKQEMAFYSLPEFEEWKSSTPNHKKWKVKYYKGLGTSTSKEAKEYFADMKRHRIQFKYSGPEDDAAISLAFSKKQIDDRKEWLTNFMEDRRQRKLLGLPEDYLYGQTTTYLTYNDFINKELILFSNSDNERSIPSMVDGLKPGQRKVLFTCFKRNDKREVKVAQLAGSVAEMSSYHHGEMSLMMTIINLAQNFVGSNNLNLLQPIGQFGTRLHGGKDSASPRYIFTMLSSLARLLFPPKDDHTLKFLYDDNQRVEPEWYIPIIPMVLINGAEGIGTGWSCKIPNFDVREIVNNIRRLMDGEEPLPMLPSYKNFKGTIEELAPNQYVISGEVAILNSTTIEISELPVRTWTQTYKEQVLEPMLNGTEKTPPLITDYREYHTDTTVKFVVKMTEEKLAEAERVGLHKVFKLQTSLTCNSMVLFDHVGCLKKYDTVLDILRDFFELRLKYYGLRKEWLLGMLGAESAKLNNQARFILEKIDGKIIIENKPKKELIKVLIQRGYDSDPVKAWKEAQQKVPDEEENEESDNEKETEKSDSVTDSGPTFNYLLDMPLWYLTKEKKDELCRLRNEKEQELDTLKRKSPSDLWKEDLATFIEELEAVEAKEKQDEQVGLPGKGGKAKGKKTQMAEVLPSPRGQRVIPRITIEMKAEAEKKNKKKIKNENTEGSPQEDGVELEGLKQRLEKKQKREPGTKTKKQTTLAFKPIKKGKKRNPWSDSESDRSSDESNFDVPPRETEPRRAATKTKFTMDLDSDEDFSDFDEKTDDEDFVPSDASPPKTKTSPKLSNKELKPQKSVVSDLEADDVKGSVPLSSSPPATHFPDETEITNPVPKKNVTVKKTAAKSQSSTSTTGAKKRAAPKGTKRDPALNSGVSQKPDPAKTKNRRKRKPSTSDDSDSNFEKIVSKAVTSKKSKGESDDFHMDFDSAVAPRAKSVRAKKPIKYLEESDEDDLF
DDB1: DNA damage-binding protein 1 (DDB1, Homo sapiens, UniProt Q16531)
Sequence of UniProt Q16531 (whole entry, looked up): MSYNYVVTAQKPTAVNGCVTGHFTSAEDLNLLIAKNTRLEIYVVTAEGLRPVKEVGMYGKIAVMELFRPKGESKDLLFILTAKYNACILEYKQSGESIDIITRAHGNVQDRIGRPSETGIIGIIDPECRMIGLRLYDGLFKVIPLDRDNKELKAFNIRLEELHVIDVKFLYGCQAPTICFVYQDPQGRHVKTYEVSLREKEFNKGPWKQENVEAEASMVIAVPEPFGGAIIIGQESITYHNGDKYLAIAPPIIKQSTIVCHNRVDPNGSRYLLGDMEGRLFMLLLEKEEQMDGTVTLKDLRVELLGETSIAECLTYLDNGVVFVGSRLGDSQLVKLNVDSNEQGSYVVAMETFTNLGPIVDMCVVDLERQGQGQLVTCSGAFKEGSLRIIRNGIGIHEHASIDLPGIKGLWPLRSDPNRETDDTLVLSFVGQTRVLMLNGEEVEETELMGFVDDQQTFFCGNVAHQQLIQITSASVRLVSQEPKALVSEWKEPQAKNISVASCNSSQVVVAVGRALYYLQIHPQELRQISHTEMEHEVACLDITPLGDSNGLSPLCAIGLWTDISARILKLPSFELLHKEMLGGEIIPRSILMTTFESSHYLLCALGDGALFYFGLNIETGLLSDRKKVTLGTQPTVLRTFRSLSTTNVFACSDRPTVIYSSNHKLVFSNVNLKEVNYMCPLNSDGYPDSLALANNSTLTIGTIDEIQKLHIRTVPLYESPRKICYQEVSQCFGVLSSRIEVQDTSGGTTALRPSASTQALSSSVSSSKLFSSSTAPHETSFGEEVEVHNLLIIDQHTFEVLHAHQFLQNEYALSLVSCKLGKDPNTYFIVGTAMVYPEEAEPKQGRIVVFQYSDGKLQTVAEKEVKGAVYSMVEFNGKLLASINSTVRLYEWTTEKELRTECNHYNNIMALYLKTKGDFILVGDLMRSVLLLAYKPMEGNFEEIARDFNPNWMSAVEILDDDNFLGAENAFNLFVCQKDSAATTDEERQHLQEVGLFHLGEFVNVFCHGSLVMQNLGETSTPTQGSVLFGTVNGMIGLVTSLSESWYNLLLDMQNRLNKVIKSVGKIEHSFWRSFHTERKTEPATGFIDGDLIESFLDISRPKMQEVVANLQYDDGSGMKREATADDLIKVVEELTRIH
BEST2: Bestrophin-2a (BEST2, Homo sapiens, UniProt Q8NFU1)
Sequence of UniProt O76090 (whole entry, unmodified, looked up): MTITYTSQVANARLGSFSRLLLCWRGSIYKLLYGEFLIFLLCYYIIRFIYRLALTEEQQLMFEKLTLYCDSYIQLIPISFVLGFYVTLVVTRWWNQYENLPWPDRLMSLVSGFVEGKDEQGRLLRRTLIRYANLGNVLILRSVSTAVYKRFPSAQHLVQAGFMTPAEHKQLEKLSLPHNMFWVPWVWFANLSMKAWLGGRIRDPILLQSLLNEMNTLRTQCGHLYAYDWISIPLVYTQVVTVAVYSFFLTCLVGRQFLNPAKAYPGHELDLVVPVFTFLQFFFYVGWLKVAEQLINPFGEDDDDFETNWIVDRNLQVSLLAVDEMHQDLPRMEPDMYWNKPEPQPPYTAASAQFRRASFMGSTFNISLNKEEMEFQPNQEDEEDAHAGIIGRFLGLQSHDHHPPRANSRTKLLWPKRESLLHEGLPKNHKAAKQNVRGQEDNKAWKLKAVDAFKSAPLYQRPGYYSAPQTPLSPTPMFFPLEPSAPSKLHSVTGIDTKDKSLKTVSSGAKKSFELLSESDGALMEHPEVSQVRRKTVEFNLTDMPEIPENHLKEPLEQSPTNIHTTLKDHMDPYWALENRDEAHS
Sequence of UniProt P05164 (whole entry, looked up): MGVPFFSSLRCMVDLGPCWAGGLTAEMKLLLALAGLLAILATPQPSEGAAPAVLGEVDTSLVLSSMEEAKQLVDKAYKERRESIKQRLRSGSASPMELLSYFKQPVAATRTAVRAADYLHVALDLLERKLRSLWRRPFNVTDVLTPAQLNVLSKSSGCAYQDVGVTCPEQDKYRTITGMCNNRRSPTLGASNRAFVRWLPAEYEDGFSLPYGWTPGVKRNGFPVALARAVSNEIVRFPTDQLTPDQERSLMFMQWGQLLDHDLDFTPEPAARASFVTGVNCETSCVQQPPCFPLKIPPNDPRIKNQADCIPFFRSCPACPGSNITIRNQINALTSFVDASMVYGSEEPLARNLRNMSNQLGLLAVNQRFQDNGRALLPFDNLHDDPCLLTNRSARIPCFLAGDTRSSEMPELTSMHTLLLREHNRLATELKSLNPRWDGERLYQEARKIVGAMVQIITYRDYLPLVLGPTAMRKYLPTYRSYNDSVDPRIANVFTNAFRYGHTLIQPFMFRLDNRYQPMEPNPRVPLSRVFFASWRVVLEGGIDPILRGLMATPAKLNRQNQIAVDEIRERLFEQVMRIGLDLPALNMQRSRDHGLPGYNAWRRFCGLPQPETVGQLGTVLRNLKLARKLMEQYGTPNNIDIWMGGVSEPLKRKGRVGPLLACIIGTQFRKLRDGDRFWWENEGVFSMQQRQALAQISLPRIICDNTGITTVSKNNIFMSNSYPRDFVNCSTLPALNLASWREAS
Sequence of UniProt P51575 (whole entry, unmodified, looked up): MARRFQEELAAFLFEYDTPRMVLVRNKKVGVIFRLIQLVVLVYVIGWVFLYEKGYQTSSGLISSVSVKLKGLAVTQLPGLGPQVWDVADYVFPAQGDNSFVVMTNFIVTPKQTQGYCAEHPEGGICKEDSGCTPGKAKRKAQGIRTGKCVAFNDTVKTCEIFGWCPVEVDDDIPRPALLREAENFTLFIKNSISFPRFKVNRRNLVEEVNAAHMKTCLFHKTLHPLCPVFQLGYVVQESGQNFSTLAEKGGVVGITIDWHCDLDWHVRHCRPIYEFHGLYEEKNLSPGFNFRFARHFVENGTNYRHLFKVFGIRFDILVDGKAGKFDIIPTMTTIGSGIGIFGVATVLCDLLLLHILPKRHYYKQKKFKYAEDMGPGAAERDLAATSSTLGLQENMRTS
Sequence of UniProt Q16774 (whole entry, unmodified, looked up): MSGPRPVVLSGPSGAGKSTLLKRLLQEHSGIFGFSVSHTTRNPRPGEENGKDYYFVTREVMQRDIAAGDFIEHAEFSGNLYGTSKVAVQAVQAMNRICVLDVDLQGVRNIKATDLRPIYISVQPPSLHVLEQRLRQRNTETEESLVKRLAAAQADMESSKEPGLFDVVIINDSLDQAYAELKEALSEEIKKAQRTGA
Sequence of UniProt Q9NZQ7 (whole entry, looked up): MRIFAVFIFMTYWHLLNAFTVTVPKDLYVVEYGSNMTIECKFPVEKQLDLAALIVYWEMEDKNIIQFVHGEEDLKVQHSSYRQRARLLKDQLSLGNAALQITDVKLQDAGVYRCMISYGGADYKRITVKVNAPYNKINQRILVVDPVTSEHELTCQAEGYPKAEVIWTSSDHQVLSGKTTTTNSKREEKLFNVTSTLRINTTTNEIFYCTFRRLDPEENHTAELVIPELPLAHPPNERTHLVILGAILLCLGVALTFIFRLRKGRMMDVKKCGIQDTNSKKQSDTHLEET

Compound | target | test | test system | setting | how to read | quantity | result
O=C(Nc1ncnc2c1ncn2[C@@H]1O[C@@H]2COP(=O)(O)OC2C1O)c1ccccc1 (stereo in doubt) | anti-cGMP antibody | antibody binding, competitive cGMP EIA | – | concentration not given, acetylated samples | relative to: EC50 cGMP over EC50 cpd, higher = stronger binding | relative binding affinity | 0.0007
CC(C)c1cccc2c(-c3ccccc3)cc(-c3ccc(-c4ccc(C(=O)O)cc4)[nH]3)nc12 | RARB (Homo sapiens, UniProt P10826) | reporter gene, antagonist | – | – | relative to: IC50 RARα over IC50 RARB | selectivity ratio | > 100 fold
Cc1nc(CSc2nc(SCc3cc(F)cc(C(F)(F)F)c3)nc(=O)[nH]2)cs1 | TOP2A | decatenation | – | 15.6 µM | – | mean decatenated DNA | 93.9%
CC(C)NC[C@@H](C(=O)N1CCN(c2ncnc3c2[C@H](C)C[C@H]3O)CC1)c1ccc(Cl)cc1 | PKN1 (Homo sapiens, UniProt Q16512) | inhibitor | – | – | – | Hill slope | -0.753
CC(Oc1ccccc1)C(=O)NCc1ccccn1 (stereo not drawn) | DDB1 | binding, affinity selection mass spectrometry | – | – | relative to: other proteins in batch | fold enrichment | 1.56
COc1ccc(C(=O)/C=C/c2cccc(-c3cccc(-c4ccc(CNC5CCC(=O)NC5=O)c(OC)n4)c3C)c2)cc1 (stereo not drawn) | CD274 (Homo sapiens, UniProt Q9NZQ7) | degrader, western blot | HL-60 | 1 µM | – | degradation | < 5%
Nc1ncnc2c1ncn2[C@@H]1O[C@H](COP(=O)(O)CP(=O)(O)OP(=O)(O)O)[C@@H](O)[C@H]1O | P2X purinoceptor 1 (P2RX1, Homo sapiens, UniProt P51575, K136A) | calcium influx | – | 1 µM | relative to: ionomycin response | calcium influx | 89.4% and 85.6% and 77.7%
CC(=C/C(=O)O)/C=C/C=C(\C)C1C=C2C(C)(C)CCCC2(C)O1 (stereo not drawn) | Rhodopsin (RHO, Homo sapiens, UniProt P08100, T17M) | immunostaining, refers to: opsin | COS-7 transfected | 1.00 µM, unit not given | relative to: surface over total stained cells | plasma membrane localization | 0.25
O=C(O)c1ccc(O)cc1 | BEST2 | whole-cell patch clamp | HEK293 transiently expressing channel | concentration not given, membrane potential -100 mV | – | current density | -101 pA/pF and -290 pA/pF and -169 pA/pF and -270 pA/pF and -152 pA/pF and -260 pA/pF and -320 pA/pF
O=C(O)c1ccc(Nc2ncc3c(n2)-c2ccc(Cl)cc2C(c2c(F)cccc2F)=NC3)cc1 | CaMKII(r) | kinase activity | – | 1 µM | – | remaining activity | 102%
Cc1cc2c(cc1N1C(=O)c3cccc4c(Cl)ccc(c34)C1=O)n(C)c(=O)n2C | BRD9 (Homo sapiens, UniProt Q9H8M2) | – | – | 10 µM | – | delta Tm | -2.9 °C
Nc1nc2c(ncn2[C@@H]2O[C@H](COP(=O)(O)O)[C@@H](O)[C@H]2O)c(=O)[nH]1 | GUK1 (Homo sapiens, UniProt Q16774, Y53A) | enzyme activity, NADH-coupled | – | 500 µM | – | reaction rate | 3.75 s⁻¹ and 5.18 s⁻¹ and 4.14 s⁻¹
CCOc1cccc(C2CC(=O)Nc3c2c(C)nn3-c2ccc3nncn3n2)c1 (stereo not drawn) | DDB1 | binding, surface plasmon resonance | – | 7.5 µM | – | SPR response | 6.04 RU
O=c1nc(SCc2cc(F)cc(C(F)(F)F)c2)nc(SCc2nc3ccccc3[nH]2)[nH]1 | TOP2A | decatenation | – | 15.6 µM | – | mean decatenated DNA | 92%
c1coc(-c2n[nH]cc2-c2ccnc3ccccc23)c1 | Casein kinase I HRR25 (Candida albicans, UniProt Q59S64) | kinase binding, MIB/MS competition | Candida albicans lysate | 10 µM | relative to: DMSO, negative = stronger binding | log2 fold change | -0.55
O=C(COP(=O)(O)O)[C@@H](O)[C@H](O)[C@H](O)COP(=O)(O)O | GLUD1 (Homo sapiens, UniProt P00367) | thermal proteome profiling | HepG2 cell lysate | concentration not given, 57 over 37 °C, mean | relative to: compound over control | thermal stability ratio | 4.09
Cc1c(COc2ccc(CN3CCCCC3C(=O)O)cc2Br)cccc1-c1ccccc1 (stereo not drawn) | Cd274 (Mus musculus, UniProt Q9EP73) | western blot | mouse B16-F10 tumour, tumour | dose not given, unit not given | relative to: β-actin, control | protein level | 0.936
C[C@H](CCC(C)(C)O)[C@H]1CC[C@H]2[C@@H]3CC=C4C[C@@](C)(O)CC[C@]4(C)[C@H]3CC[C@]12C | Glutamate NMDA receptor; GRIN1/GRIN2B (GRIN1/GRIN2B, Homo sapiens, UniProt Q05586+Q13224, P557A) | positive allosteric modulator, two-electrode voltage clamp | Xenopus oocytes expressing GluN1-P557A | 10 µM, 0.02% cremophor, together with: 100 µM glutamate and glycine | relative to: without compound | current response | 131 ± 4.8%
Nc1ccc(C(=O)O)cc1 | BEST1, with wild-type BEST1 (Homo sapiens, UniProt O76090, Q293K) | ion current, whole-cell patch clamp | HEK293 co-expressing mutant and wild-type | concentration not given, voltage 40 mV | – | current density | 3.44 pA/pF and 5.65 pA/pF and 8.73 pA/pF and 6.77 pA/pF and 15.6 pA/pF and 5.14 pA/pF
O=c1nc(SCc2cc(F)cc(C(F)(F)F)c2)nc(SCc2ccc3ncsc3c2)[nH]1 | TOP2A | decatenation | – | 125 µM, replicate 2 | – | decatenated DNA | 0%
O=C(O)c1ccc([N+](=O)[O-])cc1 | BEST2 | whole-cell patch clamp | HEK293 transiently expressing channel | concentration not given, membrane potential 80 mV | – | current density | 221 pA/pF and 279 pA/pF and 260 pA/pF and 74.1 pA/pF and 313 pA/pF

Compound | target | test | test system | setting | how to read | quantity | result
C1=C/COCc2cc(ccc2OCCN2CCCC2)Nc2nccc(n2)-c2cccc(c2)COC/1 | MAP4K3 (Homo sapiens, UniProt Q8IVH8) | – | – | concentration not given | – | percent of control | 80%
CCCCCCOC(=O)c1ccccc1C(=O)c1ccc(N(CC)CC)cc1O | Androgen receptor (AR, Homo sapiens, UniProt P10275) | reporter gene, antagonist | – | – | – | PC50 | 2.4 µM
Fc1ccc2c(-c3nnc(Cc4ccccc4)s3)nn(Cc3ccc(Cl)cc3Cl)c2c1 | Hexokinase-2 (HK2, Homo sapiens, UniProt P52789) | ADP-Glo | – | 100 µM, 40 min | relative to: DMSO | enzyme activity | increased
CCc1cnn2c(NCc3ccc[n+]([O-])c3)cc(N3CCCC[C@H]3CCO)nc12 | BRD4 (Homo sapiens, UniProt O60885) | 19F NMR, refers to: tyrosine 97 | – | 24 µM | relative to: free protein | chemical shift change | -0.037 ppm
CN1CCN(c2cc(-c3ccncc3)c(-c3ccc4ccccc4c3)nn2)CC1 | CCR4 (Homo sapiens, UniProt P51679) | agonist, FLIPR | – | 12.5 µM | – | activation | 2.1%
O=c1cc(-c2ccc(OS(=O)(=O)[O-])cc2)oc2cc(OS(=O)(=O)[O-])cc(OCc3cccc(COc4cc(OS(=O)(=O)[O-])cc5oc(-c6ccc(OS(=O)(=O)[O-])cc6)cc(=O)c45)n3)c12.[Na+].[Na+].[Na+].[Na+] | Neutrophil elastase (ELANE, Homo sapiens, UniProt P08246) | – | – | 1000 nM, together with: chromogenic substrate | – | Vmax | 15.3 ± 1.6 mAU/min
NC/C(=C\F)COc1cccc(Cn2c(=S)[nH]c(=O)c3[nH]cnc32)c1 | Myeloperoxidase (MPO, Homo sapiens, UniProt P05164) | inhibitor, cholesteryl ester hydroperoxide | – | 0.0185 µM | relative to: control | LDL lipid peroxidation | 41.3% and 25.9% and 106% and 10.5%
CC1(C)CC2(C)OC(=O)NC2(C)c2ccccc21 (stereo not drawn) | DDB1 | binding, affinity selection mass spectrometry | – | – | relative to: other proteins in batch | fold enrichment | 0.486
NS(=O)(=O)C(F)(F)F | CA4 (Homo sapiens, UniProt P22748) | ITC | – | concentration not given, 25 °C | – | intrinsic binding ΔH | -5.14 kcal/mol
CC[C@@H]1[C@H](F)C(=O)N[C@@H]1COc1nccc2cc(C(N)=O)c(OC)cc12 | AXL (Homo sapiens, UniProt P30530) | ATP-site probe binding, inhibitor, ActivX ATP probe profiling | THP-1 cell lysate | 0.2 mM, activation loop site | – | inhibition | 7.8%
O=c1nc(SCc2cc(F)cc(C(F)(F)F)c2)nc(SCc2cccc(C(F)(F)F)c2)[nH]1 | TOP2A | decatenation | – | 15.6 µM, replicate 1 | – | decatenated DNA | 36.4%
Cn1cc(C2CCCCC2)c2cc(CCOCCCCCc3ccccc3)ccc21 | ATP2A2 (Sus scrofa, UniProt P11607) | ATPase Vmax increase, activator | pig microsomes | 0.1 to 50 µM | relative to: vehicle | Emax | 19 to 25%
O=c1nc(SCc2cc(F)cc(C(F)(F)F)c2)nc(SCc2ccc3ccccc3n2)[nH]1 | TOP2A | decatenation | – | 7.8 µM | – | mean decatenated DNA | 100%
Cc1cc(Nc2cc(N3CCN(C)CC3)nc(Sc3ccc(NC(=O)C4CC4)cc3)n2)[nH]n1 | RET (Homo sapiens, UniProt P07949, V804L) | kinase activity | – | 0.03 µM, V804L | relative to: control | remaining activity | 23%
CCC(C)(NCCc1ccc(C(F)(F)F)cc1)c1cccc(NC2=CC(=O)N(C3CCC(=O)NC3=O)C2=O)c1 (stereo not drawn) | Cereblon/Ikaros (Homo sapiens, UniProt Q13422+Q96SW2) | protein degradation, degrader, HiBiT luminescence | Jurkat | – | – | Dmax | 77%
Nc1nc(N)c2nc(CNc3ccc(C(=O)N4CCC(C(=O)O)CC4)cc3)cnc2n1 | Pteridine reductase 1 (Leishmania major, UniProt Q01782) | – | – | hDHFR weight 10 | relative to: LmPTR1, LmDHFR over hDHFR, 1.0 selective, 0.0 non-selective | partition index | 0.89
O=c1nc(SCc2ccc(C(F)(F)F)cc2)nc(SCc2ccc3sccc3c2)[nH]1 | TOP2A | decatenation | – | 7.8 µM, replicate 1 | – | decatenated DNA | 100%
O=[N+]([O-])c1cc(C(F)(F)F)ccc1NCc1ccsc1 | Endothelial PAS domain-containing protein 1, PAS-B domain (EPAS1, Homo sapiens, UniProt Q99814) | ZZ-exchange NMR | – | 25 °C | – | koff | 1.06 ± 0.08 s⁻¹
O=C(O)C1CCCNC1 (stereo not drawn) | SLC6A6 (Homo sapiens, UniProt P31641, Y138A) | binding, microscale thermophoresis | – | 43.2 nM, fitted curve | higher = more binding | fraction bound | 0.00214
C[C@@H]1C[C@H](Nc2ccccc2)c2cc(F)ccc2N1C(=O)c1ccncn1 | Ecdysone receptor (Aedes albopictus, UniProt Q9U3Y4) | ligand binding, inhibitor | intact cells | together with: [3H]ponasterone A | direction not given | pIC50 Z-score | -0.62
CC(C)c1ccc(CSc2nc(SCc3ccc4sccc4c3)[nH]c(=O)n2)cc1 | TOP2A | decatenation | – | 31.25 µM, replicate 1 | – | decatenated DNA | 0%

Excerpt of the above:
Compound | target | test | test system | setting | how to read | quantity | result
CN1CCN(c2cc(-c3ccncc3)c(-c3ccc4ccccc4c3)nn2)CC1 | CCR4 (Homo sapiens, UniProt P51679) | agonist, FLIPR | – | 12.5 µM | – | activation | 2.1%
CC1(C)CC2(C)OC(=O)NC2(C)c2ccccc21 (stereo not drawn) | DDB1 | binding, affinity selection mass spectrometry | – | – | relative to: other proteins in batch | fold enrichment | 0.486
Cn1cc(C2CCCCC2)c2cc(CCOCCCCCc3ccccc3)ccc21 | ATP2A2 (Sus scrofa, UniProt P11607) | ATPase Vmax increase, activator | pig microsomes | 0.1 to 50 µM | relative to: vehicle | Emax | 19 to 25%
Nc1nc(N)c2nc(CNc3ccc(C(=O)N4CCC(C(=O)O)CC4)cc3)cnc2n1 | Pteridine reductase 1 (Leishmania major, UniProt Q01782) | – | – | hDHFR weight 10 | relative to: LmPTR1, LmDHFR over hDHFR, 1.0 selective, 0.0 non-selective | partition index | 0.89
